# Results from different studies.
# Lines come from different studies, so protocols differ. ± gives the spread as reported.
# TST: Thiosulfate sulfurtransferase (TST, Bos taurus, UniProt P00586)
# Sequence of UniProt P00586 (whole entry, looked up): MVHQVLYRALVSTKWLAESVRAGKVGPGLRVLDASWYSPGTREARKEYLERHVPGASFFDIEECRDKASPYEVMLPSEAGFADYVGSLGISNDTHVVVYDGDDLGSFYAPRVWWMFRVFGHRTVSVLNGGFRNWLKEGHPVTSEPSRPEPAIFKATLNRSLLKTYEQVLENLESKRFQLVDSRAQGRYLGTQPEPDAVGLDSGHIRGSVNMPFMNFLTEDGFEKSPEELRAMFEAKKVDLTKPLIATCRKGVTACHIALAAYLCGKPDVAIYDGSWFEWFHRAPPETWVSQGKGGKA
# MAOA: Amine oxidase [flavin-containing] A (MAOA, Homo sapiens, UniProt P21397)
# Sequence of UniProt P21397 (whole entry, looked up): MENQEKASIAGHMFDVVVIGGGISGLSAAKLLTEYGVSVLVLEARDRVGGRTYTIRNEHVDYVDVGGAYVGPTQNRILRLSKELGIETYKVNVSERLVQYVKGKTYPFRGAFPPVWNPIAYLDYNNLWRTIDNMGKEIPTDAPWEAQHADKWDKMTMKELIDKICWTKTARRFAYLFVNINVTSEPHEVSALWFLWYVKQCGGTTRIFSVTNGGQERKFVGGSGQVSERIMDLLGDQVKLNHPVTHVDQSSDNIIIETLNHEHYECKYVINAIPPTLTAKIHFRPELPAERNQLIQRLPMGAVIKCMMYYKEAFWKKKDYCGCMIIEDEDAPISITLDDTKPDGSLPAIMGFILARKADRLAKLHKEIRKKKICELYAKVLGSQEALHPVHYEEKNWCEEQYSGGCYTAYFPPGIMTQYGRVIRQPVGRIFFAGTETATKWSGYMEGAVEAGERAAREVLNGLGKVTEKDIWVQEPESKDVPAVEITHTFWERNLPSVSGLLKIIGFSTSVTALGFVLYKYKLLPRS
# fabG: 3-oxoacyl-[acyl-carrier-protein] reductase FabG (fabG, Pseudomonas aeruginosa, UniProt O54438)
# Sequence of UniProt O54438 (whole entry, looked up): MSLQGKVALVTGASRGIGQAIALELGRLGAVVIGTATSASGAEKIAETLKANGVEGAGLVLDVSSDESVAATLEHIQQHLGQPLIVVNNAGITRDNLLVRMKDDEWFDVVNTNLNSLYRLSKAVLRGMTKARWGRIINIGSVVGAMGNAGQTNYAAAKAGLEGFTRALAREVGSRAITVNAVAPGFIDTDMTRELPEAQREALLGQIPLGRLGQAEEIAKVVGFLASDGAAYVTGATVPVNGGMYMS
# ORF1 3C-like protease: Genome polyprotein, 3C-like protease (ORF1, Hu/NV/NV/1968/US, UniProt Q83883)
# Sequence of UniProt Q83883 (whole entry, looked up): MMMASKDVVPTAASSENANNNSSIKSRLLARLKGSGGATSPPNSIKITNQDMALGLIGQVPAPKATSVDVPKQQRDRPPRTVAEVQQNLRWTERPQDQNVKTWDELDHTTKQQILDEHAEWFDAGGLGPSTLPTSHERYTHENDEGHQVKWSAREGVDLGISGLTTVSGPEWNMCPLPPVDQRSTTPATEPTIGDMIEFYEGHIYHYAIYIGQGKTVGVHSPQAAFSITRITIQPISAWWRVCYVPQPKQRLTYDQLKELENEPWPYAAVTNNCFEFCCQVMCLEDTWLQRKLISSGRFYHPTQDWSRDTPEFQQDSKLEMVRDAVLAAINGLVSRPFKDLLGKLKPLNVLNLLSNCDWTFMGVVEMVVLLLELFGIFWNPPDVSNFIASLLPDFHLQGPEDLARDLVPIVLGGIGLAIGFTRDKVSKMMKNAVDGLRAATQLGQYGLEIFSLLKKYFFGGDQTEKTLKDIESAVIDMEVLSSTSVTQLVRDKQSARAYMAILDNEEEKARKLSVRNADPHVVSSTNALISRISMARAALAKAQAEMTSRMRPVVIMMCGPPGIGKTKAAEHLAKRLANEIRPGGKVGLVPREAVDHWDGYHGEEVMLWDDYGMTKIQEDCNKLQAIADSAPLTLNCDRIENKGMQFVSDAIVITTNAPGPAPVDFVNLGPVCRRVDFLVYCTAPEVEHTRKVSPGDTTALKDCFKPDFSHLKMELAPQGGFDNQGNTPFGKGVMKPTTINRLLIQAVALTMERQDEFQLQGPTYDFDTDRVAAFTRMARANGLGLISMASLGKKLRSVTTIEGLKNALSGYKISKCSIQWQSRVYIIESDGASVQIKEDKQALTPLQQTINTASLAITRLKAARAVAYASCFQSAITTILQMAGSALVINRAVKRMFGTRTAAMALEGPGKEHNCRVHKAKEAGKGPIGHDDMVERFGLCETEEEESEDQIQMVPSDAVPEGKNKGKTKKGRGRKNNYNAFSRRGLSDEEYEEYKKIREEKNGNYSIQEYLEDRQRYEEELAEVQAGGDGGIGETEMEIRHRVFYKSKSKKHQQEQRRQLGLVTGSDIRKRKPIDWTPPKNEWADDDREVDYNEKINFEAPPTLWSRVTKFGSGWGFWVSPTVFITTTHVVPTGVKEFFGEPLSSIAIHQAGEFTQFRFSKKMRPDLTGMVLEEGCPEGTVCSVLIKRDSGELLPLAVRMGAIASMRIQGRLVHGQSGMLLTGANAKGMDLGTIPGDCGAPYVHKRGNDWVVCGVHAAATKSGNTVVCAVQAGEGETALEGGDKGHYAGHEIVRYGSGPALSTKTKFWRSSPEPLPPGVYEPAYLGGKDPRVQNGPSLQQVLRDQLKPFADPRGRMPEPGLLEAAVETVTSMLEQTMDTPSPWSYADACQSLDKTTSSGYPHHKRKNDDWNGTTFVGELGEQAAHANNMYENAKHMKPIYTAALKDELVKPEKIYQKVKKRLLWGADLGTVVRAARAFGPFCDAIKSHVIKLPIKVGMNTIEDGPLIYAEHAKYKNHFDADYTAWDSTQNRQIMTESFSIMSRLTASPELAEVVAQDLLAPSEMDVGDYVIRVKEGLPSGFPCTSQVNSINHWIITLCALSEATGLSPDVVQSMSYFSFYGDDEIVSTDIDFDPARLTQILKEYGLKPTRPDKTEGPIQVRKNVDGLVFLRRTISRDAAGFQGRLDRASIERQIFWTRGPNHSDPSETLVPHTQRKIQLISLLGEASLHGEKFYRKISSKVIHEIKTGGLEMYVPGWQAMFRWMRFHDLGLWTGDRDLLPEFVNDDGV
# MLLT1 with AF4: Protein ENL, with AF4 (MLLT1, Homo sapiens, UniProt Q03111)
# Sequence of UniProt Q03111 (whole entry, looked up): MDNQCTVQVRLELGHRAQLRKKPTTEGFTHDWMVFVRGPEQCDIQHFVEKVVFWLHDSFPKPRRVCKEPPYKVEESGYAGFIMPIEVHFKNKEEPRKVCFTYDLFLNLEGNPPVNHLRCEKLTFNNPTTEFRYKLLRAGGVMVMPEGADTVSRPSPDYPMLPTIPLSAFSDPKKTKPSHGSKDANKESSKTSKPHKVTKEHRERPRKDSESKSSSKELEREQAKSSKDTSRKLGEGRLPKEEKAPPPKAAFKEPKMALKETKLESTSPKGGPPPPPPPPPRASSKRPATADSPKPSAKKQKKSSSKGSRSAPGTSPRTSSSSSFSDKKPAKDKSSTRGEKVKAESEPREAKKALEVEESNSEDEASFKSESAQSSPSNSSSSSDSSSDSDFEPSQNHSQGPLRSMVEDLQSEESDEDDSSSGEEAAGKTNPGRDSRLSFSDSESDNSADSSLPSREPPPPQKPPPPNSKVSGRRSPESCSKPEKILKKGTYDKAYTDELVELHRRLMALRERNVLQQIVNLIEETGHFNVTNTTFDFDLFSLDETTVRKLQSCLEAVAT
# Sequence of UniProt Q7Z2W7 (whole entry, looked up): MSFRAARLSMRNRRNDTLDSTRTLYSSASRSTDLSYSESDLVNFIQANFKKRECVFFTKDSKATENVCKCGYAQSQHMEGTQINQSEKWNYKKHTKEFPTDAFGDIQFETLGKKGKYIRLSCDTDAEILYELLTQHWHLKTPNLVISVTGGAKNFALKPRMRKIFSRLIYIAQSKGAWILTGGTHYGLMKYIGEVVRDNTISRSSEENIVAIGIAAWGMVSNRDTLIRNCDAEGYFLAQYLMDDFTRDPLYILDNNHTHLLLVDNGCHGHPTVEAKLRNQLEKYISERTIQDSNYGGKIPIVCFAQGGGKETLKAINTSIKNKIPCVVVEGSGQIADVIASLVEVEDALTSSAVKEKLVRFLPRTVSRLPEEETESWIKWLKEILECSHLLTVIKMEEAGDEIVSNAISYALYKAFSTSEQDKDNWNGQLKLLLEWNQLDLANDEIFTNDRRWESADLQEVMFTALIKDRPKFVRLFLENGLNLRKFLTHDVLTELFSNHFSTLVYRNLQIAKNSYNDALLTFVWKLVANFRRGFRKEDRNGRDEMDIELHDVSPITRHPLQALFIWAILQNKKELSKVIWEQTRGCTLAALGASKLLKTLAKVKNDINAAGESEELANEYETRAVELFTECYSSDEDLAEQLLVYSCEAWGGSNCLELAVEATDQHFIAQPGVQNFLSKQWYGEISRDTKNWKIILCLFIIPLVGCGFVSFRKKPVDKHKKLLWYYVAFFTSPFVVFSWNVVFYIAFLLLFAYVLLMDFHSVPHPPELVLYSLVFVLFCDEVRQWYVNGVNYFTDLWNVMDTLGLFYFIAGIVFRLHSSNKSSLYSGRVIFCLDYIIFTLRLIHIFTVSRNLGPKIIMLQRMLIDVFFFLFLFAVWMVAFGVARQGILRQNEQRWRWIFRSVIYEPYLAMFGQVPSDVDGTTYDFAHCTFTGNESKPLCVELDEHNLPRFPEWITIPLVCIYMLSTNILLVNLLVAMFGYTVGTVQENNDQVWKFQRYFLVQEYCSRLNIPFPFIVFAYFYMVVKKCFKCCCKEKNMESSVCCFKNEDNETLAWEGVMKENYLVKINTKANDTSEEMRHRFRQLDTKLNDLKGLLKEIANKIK
# Sequence of UniProt Q96D96 (whole entry, looked up): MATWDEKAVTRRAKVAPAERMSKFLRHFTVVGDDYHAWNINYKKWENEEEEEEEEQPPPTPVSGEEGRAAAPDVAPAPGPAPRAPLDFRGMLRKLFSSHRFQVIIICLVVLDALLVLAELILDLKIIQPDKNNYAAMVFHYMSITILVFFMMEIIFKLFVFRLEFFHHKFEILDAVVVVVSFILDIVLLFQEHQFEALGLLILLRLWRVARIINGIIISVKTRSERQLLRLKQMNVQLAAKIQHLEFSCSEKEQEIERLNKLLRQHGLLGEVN
SMILES,target,assay,system,setting,IC50
CC(=O)/C=C/C1=C(C)CCCC1(C)C,"uncharacterized protein (Bradysia odoriphaga, UniProt A0A2S0X9G4)","binding, competitive fluorescence displacement",,pH 7.4,30 µM
Cc1cnc(-c2ccc(-c3ccc(NC(=O)Nc4c(F)cc(F)cc4F)cc3F)c3c2C(=O)NC3)[nH]1,"FLT3 (Homo sapiens, UniProt P36888)","enzyme activity, inhibitor, mobility shift",,together with: ATP 1 mM,0.0081 µM
CN1C(=O)[C@@H](Cc2ccc(O)cc2)NC(=O)CNC(=O)[C@H](Cc2ccc3ccccc3c2)NC(=O)[C@H](CCCNC(=N)N)NC(=O)[C@H]1CCCNC(=O)CCCCNC(=O)CCCCNC(=O)CN1CCN(CC(=O)O)CCN(CC(=O)O)CCN(CC(=O)O)CC1,"CXCR4 (Homo sapiens, UniProt P61073)",,,,0.123 ± 0.025 µM
O=S(=O)(Nc1ccc(-c2nc3cc(NS(=O)(=O)c4ccc(C(F)(F)F)cc4)ccc3o2)cc1)c1ccc(C(F)(F)F)cc1,TST,"enzyme activity, inhibitor",,native rhodanese counter-screen,> 100 µM
CCCCCCCCCCCCCCCC(=O)OC[C@H](O)[C@H]1OC(=O)C(O)=C1O,"Thyroxine 5-deiodinase (DIO3, Homo sapiens, UniProt P55073)",,,,32.5 µM
C[C@H]1[C@H](F)C[C@@H](C(=O)NCc2cc(-c3cnc(C(F)(F)F)nc3)ncc2C(F)(F)F)N1S(=O)(=O)c1ccc(F)cc1,"TRPM8 (Homo sapiens, UniProt Q7Z2W7)","calcium response, antagonist",human cells,together with: menthol 50 µM,10.7 µM
CN1CCC(CNc2ccc3ncc(-c4cccc(OC(F)(F)F)c4)n3n2)CC1,"KDR (Homo sapiens, UniProt P35968)","binding, KINOMEscan binding",,top concentration 10 µM,4.67 µM
CC[C@@H]1[C@H](F)C(=O)N[C@@H]1COc1nccc2cc(C(N)=O)c(OC)cc12,"TNIK (Homo sapiens, UniProt Q9UKE5)","ATP-site binding, ActivX kinase profiling",THP-1 cell lysate,ZC2/TNIK Lys1 probe peptide,> 5 µM
O=C(Nc1ccccc1)c1ccccc1,MAOA,,,,> 40 µM
COc1cc(NC(=O)c2cccs2)c2ncccc2c1,fabG,"enzyme activity, inhibitor, NADPH fluorescence",,"reverse reaction, geometric mean, together with: 3-OH-decanoyl-NAC, NADP",2.3 µM
CC/C=C\C/C=C\C/C=C\C/C=C\C/C=C\CCCC(=O)O,"DNA polymerase alpha catalytic subunit, with primase subunits (Bos taurus, UniProt A0A3Q1MF00)","enzyme activity, inhibitor",,,> 100 µM
OC[C@H]1O[C@@](CO)(O[C@H]2O[C@H](CO)[C@@H](O)[C@H](O)[C@H]2O)[C@@H](O)[C@@H]1O,"uncharacterized protein (Drosophila suzukii, UniProt A0AB39ZGK5)","binding, bis-ANS competition fluorescence",,"pH 7.4, together with: bis-ANS",> 50 µM
COc1cccc(NC(=O)c2ccc3c(c2)C(=O)NC3=O)c1,MAOA,,,,> 40 µM
COc1cc(/C=C/C(=O)CC(=O)/C=C/c2ccc(O)c(OC)c2)ccc1O,"ATP2A1 (Oryctolagus cuniculus, UniProt P04191)","ATPase activity, inhibitor",,,5.1 µM
CCCCCCCC(=O)OCC,"uncharacterized protein (Drosophila suzukii, UniProt A0AB39ZCT4)","binding, bis-ANS competition fluorescence",,"pH 7.4, together with: bis-ANS",> 50 µM
C=CC(C)=CCC=C(C)C,"uncharacterized protein (Bradysia odoriphaga, UniProt A0A2S0X9G4)","binding, competitive fluorescence displacement",,pH 7.4,> 50 µM
O=c1nc(SCc2cc(F)cc(C(F)(F)F)c2)nc(SCc2ccc3sccc3c2)[nH]1,"TOP2A (Homo sapiens, UniProt P11388)","ATPase activity, ATP-competitive inhibitor",,together with: ATP 0.5 mM,13.3 µM
O=C(Nc1ccc(F)c(Br)c1)c1ccc2c(c1)C(=O)NC2=O,MAOA,,,,> 40 µM
CCCCCCCCCC=O,"uncharacterized protein (Bradysia odoriphaga, UniProt A0A2S0X9G4)","binding, competitive fluorescence displacement",,pH 7.4,> 50 µM
CC(C)C[C@H](NC(=O)[C@H](Cc1cccc2ccccc12)NC(=O)OCc1ccccc1)C(=O)N[C@H](CS)C[C@@H]1CCNC1=O,ORF1 3C-like protease,"protease activity, inhibitor, FRET",GI.1,37 °C,> 10 µM
CC(C)=CCCC(C)CCO (centres unmarked),"uncharacterized protein (Bradysia odoriphaga, UniProt A0A2S0X9G4)","binding, competitive fluorescence displacement",,pH 7.4,> 50 µM
O=c1ccc2ccccc2o1,"uncharacterized protein (Drosophila suzukii, UniProt A0AB39ZCT4)","binding, bis-ANS competition fluorescence",,"pH 7.4, together with: bis-ANS",13.6 µM
CC(C)C[C@H](NC(=O)[C@H](Cc1cccc2ccccc12)NC(=O)OCc1ccccc1)C(=O)N[C@H](CO)CCC(=O)N1CCC1,ORF1 3C-like protease,"protease activity, inhibitor, FRET",GI.1,37 °C,> 1 µM
Cc1cc(C)n2nc(C)c(-c3ccc(F)cc3)c2n1,fabG,,,,0.31 µM
C=CC(C)(O)CCC=C(C)C (centres unmarked),"uncharacterized protein (Bradysia odoriphaga, UniProt A0A2S0X9G4)","binding, competitive fluorescence displacement",,pH 7.4,> 50 µM
CC[N+](CC)(CC(=O)Nc1c(C)cccc1C)Cc1ccccc1,"uncharacterized protein (Drosophila suzukii, UniProt A0AB39ZGK5)","binding, bis-ANS competition fluorescence",,"pH 7.4, together with: bis-ANS",> 50 µM
O=C(Nc1ccc(Cl)c(Cl)c1)c1ccc2c(c1)C(=O)NC2=O,MAOA,,,,> 40 µM
OC[C@H]1O[C@H](O[C@H]2O[C@H](CO)[C@@H](O)[C@H](O)[C@H]2O)[C@H](O)[C@@H](O)[C@@H]1O,"uncharacterized protein (Drosophila suzukii, UniProt A0AB39ZCT4)","binding, bis-ANS competition fluorescence",,"pH 7.4, together with: bis-ANS",> 50 µM
Cc1ccc(S(=O)(=O)Nc2ccc(-c3nc4cc(NS(=O)(=O)c5ccc(C)cc5)ccc4o3)cc2)cc1,TST,"enzyme activity, inhibitor",,native rhodanese counter-screen,> 100 µM
Cn1ncc2c(N3CCCCC3)nc(Nc3ccccc3)nc21,fabG,"enzyme activity, inhibitor, NADPH fluorescence",,"reverse reaction, geometric mean, together with: 3-OH-decanoyl-NAC, NADP",2.9 µM
O=C(Nc1ccccc1Br)c1ccc2c(c1)C(=O)NC2=O,MAOA,,,,> 40 µM
O=S(=O)(Nc1ccc(-c2nc3cc(NS(=O)(=O)c4cccc5ccccc45)ccc3o2)cc1)c1cccc2ccccc12,TST,"enzyme activity, inhibitor",,native rhodanese counter-screen,> 100 µM
CN1CCN(c2ccc(Nc3ncc4cc(C#N)c(=O)n(C5CCCC5)c4n3)cc2)CC1,"CAMKK1 (Homo sapiens, UniProt Q8N5S9)",,,,> 10 µM
c1ccc(Oc2ccc(Nc3ccc4ncc(OCC5CCNCC5)nc4c3)cc2)cc1,MLLT1 with AF4,AlphaScreen,,,1.5 ± 0.39 µM
CC(C)C[C@H](NC(=O)[C@H](Cc1ccccc1)NC(=O)OCc1ccccc1)C(=O)C=O,"Calpain-2 catalytic subunit (Homo sapiens, UniProt P17655)",,,,> 10 µM
COc1c(Br)cccc1C(=O)Nc1ccc(Sc2nc3ccccc3s2)cc1,TST,"enzyme activity, inhibitor",,native rhodanese counter-screen,> 100 µM
C=C1CCC2CC1C2(C)C (centres unmarked),"uncharacterized protein (Bradysia odoriphaga, UniProt A0A2S0X9G4)","binding, competitive fluorescence displacement",,pH 7.4,> 50 µM
CCCCCCCCCCCC(=O)OC,"uncharacterized protein (Drosophila suzukii, UniProt A0AB39ZCT4)","binding, bis-ANS competition fluorescence",,"pH 7.4, together with: bis-ANS",> 50 µM
O=C(/C=C/c1ccc(Cl)cc1)N1CCC2(CC1)CN(Cc1ccc(Cl)c(Cl)c1)C(=O)O2,"GPR183 (Homo sapiens, UniProt P32249)",GTP turnover,,"together with: 7alpha,25-OHC",~0.35 µM
C[C@]12CC[C@@H]3c4ccc(O)cc4C[C@@H](CCCCCCCCC[S+]([O-])CCCC(F)(F)C(F)(F)F)[C@H]3[C@@H]1CC[C@@H]2O (some centres unmarked),"NR3C2 (Homo sapiens, UniProt P08235)","MR receptor activity, antagonist, cell-based",,,1.19 µM
N#Cc1c(N)nc(-c2ccccc2)nc1C(F)(F)F,fabG,"enzyme activity, inhibitor, NADPH fluorescence",,"reverse reaction, geometric mean, together with: 3-OH-decanoyl-NAC, NADP",1.2 µM
CCCCC(C)=O,"uncharacterized protein (Bradysia odoriphaga, UniProt A0A2S0X9G4)","binding, competitive fluorescence displacement",,pH 7.4,> 50 µM
Cc1[nH]c(N)nc1CCC(=O)c1cc(F)cc(F)c1,"HVCN1 (Homo sapiens, UniProt Q96D96)","proton current, inhibitor, inside-out patch clamp",Xenopus laevis oocytes,pH 6.0,13.3 ± 1 µM
O=C(O)c1ccc(NS(=O)(=O)c2ccc(Cl)c(Cl)c2)cc1F,"Estradiol 17-beta-dehydrogenase 11 (Homo sapiens, UniProt Q8NBQ5)","enzyme activity, inhibitor",,together with: 20-HETE ethanolamide substrate,> 100 µM
Fc1ccc(Oc2ccc(Nc3ccc4ncc(OCC5CCNCC5)nc4c3)cc2)cc1,MLLT1 with AF4,AlphaScreen,,,1.2 ± 0.12 µM
O=C(NO)c1ccc(Cn2cnc3c(Nc4ccc(Cl)cc4)ncnc32)cc1,"AKT2 (Homo sapiens, UniProt P31751)",,,together with: ATP 10 µM,> 20 µM
O=C(Nc1ccc(F)c(Cl)c1)c1ccc2c(c1)C(=O)NC2=O,MAOA,,,,> 40 µM
CCCCCCCCCCCCCC(=O)OC,"uncharacterized protein (Drosophila suzukii, UniProt A0AB39ZCT4)","binding, bis-ANS competition fluorescence",,"pH 7.4, together with: bis-ANS",> 50 µM
COc1ccccc1Nc1cccc2nccnc12,fabG,"enzyme activity, inhibitor, NADPH fluorescence",,"reverse reaction, geometric mean, together with: 3-OH-decanoyl-NAC, NADP",6.4 µM
O=S(=O)(Nc1ccc(-c2nc3cc(NS(=O)(=O)c4ccc(Cl)s4)ccc3o2)cc1)c1ccc(Cl)c(C(F)(F)F)c1,TST,"enzyme activity, inhibitor",,native rhodanese counter-screen,> 100 µM
C/C(=N\NC(=O)c1cccc(S(=O)(=O)N2CCOCC2)c1)c1cc(Cl)ccc1O,"Lysine-specific histone demethylase 1A, with CoREST (KDM1A, Homo sapiens, UniProt O60341)","demethylase activity, inhibitor",,LSD1-CoREST complex,0.136 µM
CC(=O)/C=C/C1=C(C)CCCC1(C)C,"uncharacterized protein (Drosophila suzukii, UniProt A0AB39ZCT4)","binding, bis-ANS competition fluorescence",,"pH 7.4, together with: bis-ANS",5.89 µM
O=S(=O)(Nc1ccc(-c2nc3cc(NS(=O)(=O)c4ccc(F)cc4)ccc3o2)cc1)c1ccc(F)cc1,TST,"enzyme activity, inhibitor",,native rhodanese counter-screen,> 100 µM
